Results gathered from unrelated publications.
Every numbered part comes from another study and shows a few of its results, in no order.
Sequence of UniProt Q9NRM7 (whole entry, looked up): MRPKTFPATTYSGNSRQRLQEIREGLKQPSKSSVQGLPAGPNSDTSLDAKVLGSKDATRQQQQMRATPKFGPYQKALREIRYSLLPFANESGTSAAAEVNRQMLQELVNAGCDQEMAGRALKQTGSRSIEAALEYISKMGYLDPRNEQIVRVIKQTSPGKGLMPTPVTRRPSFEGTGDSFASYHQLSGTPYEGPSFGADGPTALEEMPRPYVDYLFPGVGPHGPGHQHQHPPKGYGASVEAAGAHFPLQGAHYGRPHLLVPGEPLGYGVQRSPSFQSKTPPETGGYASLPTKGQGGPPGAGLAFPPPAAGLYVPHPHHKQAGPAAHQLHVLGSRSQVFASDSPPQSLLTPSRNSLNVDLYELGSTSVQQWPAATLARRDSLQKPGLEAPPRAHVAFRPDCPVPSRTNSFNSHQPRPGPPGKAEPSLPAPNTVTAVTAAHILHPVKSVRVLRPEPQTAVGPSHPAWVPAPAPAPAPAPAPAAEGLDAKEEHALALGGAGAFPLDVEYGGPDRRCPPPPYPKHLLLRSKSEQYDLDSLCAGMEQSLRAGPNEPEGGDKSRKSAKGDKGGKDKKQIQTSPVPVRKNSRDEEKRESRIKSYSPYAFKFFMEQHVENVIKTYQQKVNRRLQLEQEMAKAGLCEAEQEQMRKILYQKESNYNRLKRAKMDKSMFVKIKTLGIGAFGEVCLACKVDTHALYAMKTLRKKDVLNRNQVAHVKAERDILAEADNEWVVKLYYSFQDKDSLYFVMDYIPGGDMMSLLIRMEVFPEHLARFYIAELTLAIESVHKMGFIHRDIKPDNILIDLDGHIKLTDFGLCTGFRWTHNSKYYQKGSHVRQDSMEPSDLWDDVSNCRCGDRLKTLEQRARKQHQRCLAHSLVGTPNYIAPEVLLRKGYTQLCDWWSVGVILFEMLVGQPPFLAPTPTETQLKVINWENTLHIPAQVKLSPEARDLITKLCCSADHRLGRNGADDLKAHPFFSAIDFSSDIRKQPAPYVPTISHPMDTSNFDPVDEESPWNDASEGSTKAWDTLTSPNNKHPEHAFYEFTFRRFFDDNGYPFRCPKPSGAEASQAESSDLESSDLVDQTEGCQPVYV
Sequence of UniProt Q8IW41 (whole entry, looked up): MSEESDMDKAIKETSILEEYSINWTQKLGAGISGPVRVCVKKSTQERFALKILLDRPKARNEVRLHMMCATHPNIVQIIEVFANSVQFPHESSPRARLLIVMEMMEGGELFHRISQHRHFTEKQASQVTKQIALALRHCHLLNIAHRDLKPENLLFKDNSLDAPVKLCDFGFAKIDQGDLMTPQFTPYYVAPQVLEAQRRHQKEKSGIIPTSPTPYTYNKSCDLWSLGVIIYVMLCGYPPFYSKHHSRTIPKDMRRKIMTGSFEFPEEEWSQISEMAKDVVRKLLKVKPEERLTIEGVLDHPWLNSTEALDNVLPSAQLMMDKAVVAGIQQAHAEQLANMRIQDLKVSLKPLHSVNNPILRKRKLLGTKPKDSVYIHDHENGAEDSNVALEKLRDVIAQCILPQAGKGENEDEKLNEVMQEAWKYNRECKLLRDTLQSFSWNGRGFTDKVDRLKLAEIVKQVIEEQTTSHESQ
Sequence of UniProt Q9H0K1 (whole entry, looked up): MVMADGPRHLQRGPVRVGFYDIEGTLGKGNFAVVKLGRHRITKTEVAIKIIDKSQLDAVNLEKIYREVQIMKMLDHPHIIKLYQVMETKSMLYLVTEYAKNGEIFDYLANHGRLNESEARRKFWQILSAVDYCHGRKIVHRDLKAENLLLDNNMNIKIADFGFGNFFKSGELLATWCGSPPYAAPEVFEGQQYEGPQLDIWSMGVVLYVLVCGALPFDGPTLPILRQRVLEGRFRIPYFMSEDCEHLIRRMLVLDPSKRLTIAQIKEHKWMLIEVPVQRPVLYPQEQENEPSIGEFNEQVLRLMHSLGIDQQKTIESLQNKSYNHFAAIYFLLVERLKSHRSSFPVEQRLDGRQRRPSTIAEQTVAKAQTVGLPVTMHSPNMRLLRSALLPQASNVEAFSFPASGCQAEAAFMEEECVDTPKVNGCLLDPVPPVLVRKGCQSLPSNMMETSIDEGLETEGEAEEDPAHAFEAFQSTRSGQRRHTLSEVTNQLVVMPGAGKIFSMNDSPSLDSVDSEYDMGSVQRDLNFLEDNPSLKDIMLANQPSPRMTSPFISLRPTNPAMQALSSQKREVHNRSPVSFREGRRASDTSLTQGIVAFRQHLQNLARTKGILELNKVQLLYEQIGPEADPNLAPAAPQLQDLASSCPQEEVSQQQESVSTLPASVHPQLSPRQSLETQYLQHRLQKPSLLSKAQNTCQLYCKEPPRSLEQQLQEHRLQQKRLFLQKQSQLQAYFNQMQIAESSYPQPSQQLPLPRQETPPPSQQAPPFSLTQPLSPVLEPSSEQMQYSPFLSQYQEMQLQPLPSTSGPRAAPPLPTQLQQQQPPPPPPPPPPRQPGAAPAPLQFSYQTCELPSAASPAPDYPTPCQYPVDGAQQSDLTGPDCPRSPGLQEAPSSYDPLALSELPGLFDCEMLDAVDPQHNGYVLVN
Sequence of UniProt Q9UL54 (whole entry, looked up): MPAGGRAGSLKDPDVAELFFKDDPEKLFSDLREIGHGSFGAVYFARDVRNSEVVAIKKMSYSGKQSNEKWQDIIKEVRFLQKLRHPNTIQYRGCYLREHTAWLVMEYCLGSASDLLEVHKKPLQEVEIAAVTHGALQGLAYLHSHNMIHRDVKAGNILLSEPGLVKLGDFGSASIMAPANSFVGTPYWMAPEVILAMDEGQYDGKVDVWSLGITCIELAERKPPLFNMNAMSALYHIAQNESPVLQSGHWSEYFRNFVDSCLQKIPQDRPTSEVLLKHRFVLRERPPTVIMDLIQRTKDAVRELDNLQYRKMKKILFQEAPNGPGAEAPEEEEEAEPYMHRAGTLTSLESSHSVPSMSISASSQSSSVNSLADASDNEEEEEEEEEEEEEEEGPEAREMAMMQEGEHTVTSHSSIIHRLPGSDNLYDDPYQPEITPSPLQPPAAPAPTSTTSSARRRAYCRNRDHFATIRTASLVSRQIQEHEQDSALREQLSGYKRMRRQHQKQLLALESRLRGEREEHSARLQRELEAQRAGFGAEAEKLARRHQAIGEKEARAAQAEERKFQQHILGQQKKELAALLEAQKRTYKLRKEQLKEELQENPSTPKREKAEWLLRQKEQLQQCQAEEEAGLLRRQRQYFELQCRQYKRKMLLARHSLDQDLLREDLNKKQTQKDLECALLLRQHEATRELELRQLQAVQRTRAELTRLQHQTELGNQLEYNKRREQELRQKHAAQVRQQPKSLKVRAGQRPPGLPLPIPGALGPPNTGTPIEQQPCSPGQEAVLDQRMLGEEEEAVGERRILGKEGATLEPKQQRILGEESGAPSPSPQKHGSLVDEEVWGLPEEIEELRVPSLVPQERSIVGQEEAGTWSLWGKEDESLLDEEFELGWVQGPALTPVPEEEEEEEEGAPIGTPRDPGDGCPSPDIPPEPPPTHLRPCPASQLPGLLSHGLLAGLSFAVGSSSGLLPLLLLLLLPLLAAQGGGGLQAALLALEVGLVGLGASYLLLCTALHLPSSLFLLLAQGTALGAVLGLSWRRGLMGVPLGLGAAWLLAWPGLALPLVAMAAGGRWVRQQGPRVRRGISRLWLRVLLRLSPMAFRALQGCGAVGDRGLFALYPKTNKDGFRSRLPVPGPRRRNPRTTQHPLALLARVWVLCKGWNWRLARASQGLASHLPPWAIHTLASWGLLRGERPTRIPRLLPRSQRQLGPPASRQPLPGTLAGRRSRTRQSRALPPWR

Block 1
Organism: Sarcocystis neurona
Effect on: parasite growth
Tested at: 10 µM
Notes: first screen
Reference: untreated
Structure (SMILES) | log2 fold change
CC1(C)C[C@@H]1C(=O)N/C(=C\CCCCSC[C@H](N)C(=O)O)C(=O)[O-].[Na+] | 0.14
CNCCC(Oc1ccc(C(F)(F)F)cc1)c1ccccc1.Cl (stereo not shown) | 0.17
CC(=O)CCCCn1cnc2c1c(=O)n(C)c(=O)n2C | 0.36
CC(C)NCC(O)COc1cccc2ccccc12.Cl (stereo not shown) | 0.26
CC1CCN(CCCC(=O)c2ccc(F)cc2)CC1.Cl | 0.1
CCCc1nc(C)c2c(=O)[nH]c(-c3cc(S(=O)(=O)N4CCN(CC)CC4)ccc3OCC)nn12.O=C(O)CC(O)(CC(=O)O)C(=O)O | 0.1
CCN(CC)CCNC(=O)c1cc(Cl)c(N)cc1OC.Cl | 0.15
CN1C(=O)CC[C@H]1c1cccnc1 | 0.13
C[N+]1(C)CCC(OC(=O)C(O)(c2ccccc2)C2CCCC2)C1.[Br-] (stereo not shown) | -0.1
C[C@]12CCC(=O)C=C1CC[C@@H]1[C@@H]2C(=O)C[C@@]2(C)[C@H]1CC[C@]2(O)C(=O)CO | -0.06
O=C1c2c(O)ccc(O)c2C(=O)c2c(NCCNCCO)ccc(NCCNCCO)c21 | -2.01
C[C@]12CC[C@@H]3c4ccc(O)cc4CC[C@H]3[C@@H]1CC[C@@H]2O | 0.23
CCC1=C[C@@H]2CN(C1)Cc1c([nH]c3ccccc13)[C@@](C(=O)OC)(c1cc3c(cc1OC)N(C)[C@H]1[C@@](O)(C(=O)OC)[C@H](OC(C)=O)[C@]4(CC)C=CCN5CC[C@]31[C@@H]54)C2.O=C(O)C(O)C(O)C(=O)O.O=C(O)C(O)C(O)C(=O)O | -0.65
Br.O=C1CC2(CCCC2)CC(=O)N1CCNCC1COc2ccccc2O1 (stereo not shown) | -0.4

Block 2
Structure (SMILES): Cc1sc(C(=O)NC2COC2)cc1-n1cc(NC(=O)Nc2c(F)cccc2Cl)cn1
Effect on: enzyme activity
Tested at: 10 µM
target | test | scale | remaining activity
Casein kinase I isoform gamma-1 (CSNK1G1, Homo sapiens, UniProt Q9HCP0) | – | reference: untreated control | 97.7%
Bone morphogenetic protein receptor type-1B (BMPR1B, Homo sapiens, UniProt O00238) | – | reference: untreated control | 101%
MAP kinase-activated protein kinase 5 (MAPKAPK5, Homo sapiens, UniProt Q8IW41) | – | reference: untreated control | 95.3%
Serine/threonine-protein kinase WNK3 (WNK3, Homo sapiens, UniProt Q9BYP7) | – | reference: untreated control | 101%
Tyrosine-protein kinase JAK2 (JAK2, Homo sapiens, UniProt O60674) | – | reference: untreated control | 95%
Mitogen-activated protein kinase kinase kinase 19 (MAP3K19, Homo sapiens, UniProt Q56UN5) | – | reference: untreated control | 92.2%
Serine/threonine-protein kinase D2 (PRKD2, Homo sapiens, UniProt Q9BZL6) | – | reference: untreated control | 95.4%
Casein kinase I isoform gamma-3 (CSNK1G3, Homo sapiens, UniProt Q9Y6M4) | – | reference: untreated control | 90.5%
Tyrosine-protein kinase Fyn (FYN, Homo sapiens, UniProt P06241) | – | reference: untreated control | 97.1%
Epidermal growth factor receptor (EGFR, Homo sapiens, UniProt P00533) | – | reference: untreated control | 95.2%
Cyclin-dependent kinase 1, with cyclin E (CDK1, Homo sapiens, UniProt P06493) | – | reference: untreated control | 97.1%
Serine/threonine-protein kinase LATS2 (LATS2, Homo sapiens, UniProt Q9NRM7) | inhibitor | – | 94.7%
Serine/threonine-protein kinase PLK2 (PLK2, Homo sapiens, UniProt Q9NYY3) | – | reference: untreated control | 93.2%

Block 3
Structure (SMILES): CCCCN(CCCC)C(=O)CN1C[C@@H](c2cc(OC)c3c(c2)OCO3)[C@H](C(=O)O)[C@H]1CC(C)(C)CCC
Tested at: 1 µM
target | test | setting | scale | remaining binding [%]
Serine/threonine-protein kinase Nek5 (NEK5, Homo sapiens, UniProt Q6P3R8) | cell-free assay, competition with immobilised ligand | – | – | 87.9
Tyrosine-protein kinase ABL1, phosphorylated (ABL1, Homo sapiens, UniProt P00519, Y253F) | cell-free assay, competition with immobilised ligand | – | – | 100
SRSF protein kinase 2 (SRPK2, Homo sapiens, UniProt P78362) | cell-free assay, competition with immobilised ligand | – | – | 100
Serine/threonine-protein kinase TAO2 (TAOK2, Homo sapiens, UniProt Q9UL54) | cell-free assay, competition with immobilised ligand | – | – | 95.4
AP2-associated protein kinase 1 (AAK1, Homo sapiens, UniProt Q2M2I8) | KINOMEscan | – | reference: control | 100
Cyclin-dependent kinase 3 (CDK3, Homo sapiens, UniProt Q00526) | cell-free assay, competition with immobilised ligand | – | – | 88.1
TGF-beta receptor type-1 (TGFBR1, Homo sapiens, UniProt P36897) | cell-free assay, competition with immobilised ligand | – | – | 100
Mitogen-activated protein kinase 4 (MAPK4, Homo sapiens, UniProt P31152) | cell-free assay, competition with immobilised ligand | – | – | 100
MAP kinase-interacting serine/threonine-protein kinase 1 (MKNK1, Homo sapiens, UniProt Q9BUB5) | cell-free assay, competition with immobilised ligand | – | – | 100
Tyrosine-protein kinase ABL1 (ABL1, Homo sapiens, UniProt P00519, F317I) | KINOMEscan | F317I mutant, nonphosphorylated | reference: control | 100
Ephrin type-B receptor 1 (EPHB1, Homo sapiens, UniProt P54762) | cell-free assay, competition with immobilised ligand | – | – | 100
Mitogen-activated protein kinase 14 (MAPK14, Homo sapiens, UniProt Q16539) | cell-free assay, competition with immobilised ligand | – | – | 81.3
Cyclin-dependent kinase-like 5 (CDKL5, Homo sapiens, UniProt O76039) | cell-free assay, competition with immobilised ligand | – | – | 100
Protein kinase C iota type (PRKCI, Homo sapiens, UniProt P41743) | cell-free assay, competition with immobilised ligand | – | – | 100
Serine/threonine-protein kinase SIK2 (SIK2, Homo sapiens, UniProt Q9H0K1) | cell-free assay, competition with immobilised ligand | – | – | 100
Serine/threonine-protein kinase WNK4 (WNK4, Homo sapiens, UniProt Q96J92) | cell-free assay, competition with immobilised ligand | – | – | 100

Block 4
Species: mouse
Medium: microsomes or S9
Tested at: 2 µM
Time: 0.5 h
SMILES | remaining compound [%]
Cc1cc(N2CCCC(N3CCN(C(=O)Nc4cc(C)on4)CC3)C2=O)n(C)n1 (stereo not shown) | > 100
COc1ccc(C(=O)N2CCC(n3c(C)cnc3C3CCC3)C2)cc1 (stereo not shown) | 41.3
CC(C)OC(=O)c1c(NC(=O)CN2CCN(C)CC2)sc2c1CCCC2 | 8.68
CC(C)C1CC(n2cc(C(=O)O)nn2)c2cc(Cl)ccc2O1 (stereo not shown) | 71.2
Cc1cccc(NC(=O)Nc2ccc(Nc3ccc(-n4cccn4)nn3)cc2)c1 | 42.7
Cc1nnc(-c2csc(S(=O)(=O)NC(C)C)c2)o1 | 60.5
CCOc1ccc(OCC)c(NC(=O)c2cc3sc(Cl)cc3n2CC)c1 | 73.8
COC(=O)c1cc2c(c(N(C)C)c1)OC(C)(C)C=C2 | 0.112
Cc1cn(S(=O)(=O)c2ccccc2)cc1C(=O)CC(C)C[N+](=O)[O-] (stereo not shown) | 3.13
Cc1noc(-c2cccn3c(=O)n(Cc4c(C)noc4C)nc23)n1 | 0.782
Nc1[nH]nc(-c2ccc(Br)s2)c1-c1ccc2c(c1)OCO2 | 3.14
Clc1n[nH]c2c(CN(Cc3ccccc3)CC3CCCO3)cncc12 (stereo not shown) | 87.2

A few entries again (block 4):
SMILES | remaining compound [%]
Cc1noc(-c2cccn3c(=O)n(Cc4c(C)noc4C)nc23)n1 | 0.782
Cc1cn(S(=O)(=O)c2ccccc2)cc1C(=O)CC(C)C[N+](=O)[O-] (stereo not shown) | 3.13
Cc1cc(N2CCCC(N3CCN(C(=O)Nc4cc(C)on4)CC3)C2=O)n(C)n1 (stereo not shown) | > 100
CCOc1ccc(OCC)c(NC(=O)c2cc3sc(Cl)cc3n2CC)c1 | 73.8
